Assay results pooled from the literature.
Lines come from different studies, so protocols differ.
Cell line: HEK293

CCCCCCCCCC(=O)N[C@@H](Cc1ccccc1)C(=O)N[C@@H](Cc1ccccc1)C(=O)N[C@@H](Cc1ccccc1)C(=O)N[C@@H](Cc1ccccc1)C(=O)N[C@@H](CCCCN)C(=O)N[C@@H](CCCCN)C(=O)N[C@@H](CCCCN)C(=O)N[C@@H](CCCCN)C(=O)N[C@@H](CCCCN)C(N)=O — IC50 (cell growth or viability, resazurin): > 32 µg/mL
O=C1c2ccc3c4cccc5c(N6CCNCC6)ccc(c6ccc(c2c36)C(=O)N1CCN1CCCCC1)c54 — IC50 (cell growth or viability, SRB; 72 h): 258 µM
O=C(O[C@@H]1Cc2c(O)cc(O)cc2O[C@@H]1c1cc(O)c(O)c(O)c1)c1cc(O)c(O)c(O)c1 — IC50 (cell growth or viability, CCK-8; 24 h): > 150 µM
CCCC(CCC)C(=O)[O][Pt]([NH2])([NH2])([Cl])([Cl])[O]C(=O)C(Cl)Cl — IC50 (cell growth or viability, MTT; 72 h): 1.98 µM
CCN(CC)CCN1C(=O)c2ccc3c4cccc5cccc(c6ccc(c2c36)C1=O)c54 — IC50 (cell growth or viability, SRB; 72 h): 191 µM
CCCCCCCCCCOc1c(O)cc(C(=O)O[C@@H]2Cc3c(O)cc(O)cc3O[C@@H]2c2cc(O)c(O)c(O)c2)cc1O — IC50 (cell growth or viability, CCK-8; 24 h): > 150 µM
C=C[CH2][Pd-]([Cl])[Cl].CC(C)c1cccc(C(C)C)c1-n1c[n+](-c2c(C(C)C)cccc2C(C)C)c2c1-c1cccc3cccc-2c13 — IC50 (cell growth or viability, MTT; 72 h): 1.7 µM
COC(=O)[C@@H](NC(=O)[C@@H](NC(=O)OC(C)(C)C)C(C)C)C(C)C — IC50 (cell growth or viability, SRB): 238 µM
CC(C)C[C@H](NC(=O)[C@@H](Cc1c[nH]c2ccccc12)NC(=O)[C@H](Cc1c[nH]cn1)NC(=O)[C@H](CO)NC(=O)[C@H](Cc1c[nH]c2ccccc12)NC(=O)[C@H](Cc1c[nH]cn1)NC(=O)[C@@H]1CCC(=O)N1)C(=O)N[C@@H](CCCNC(=N)N)C(=O)N1CCC[C@H]1C(=O)NCC(N)=O — IC50 (cell growth or viability, SRB): 0.0012 µM
Fc1ccc(Nc2nc(NC3CCCCC3)c3ccccc3n2)cc1F — IC50 (cAMP production, inhibitor, BRET; together with: isoproterenol 1 µM): ~50 µM
CC(=O)NCCCN(C)CCCNc1cccc2c1C(=O)c1cccc(NCCCN(C)CCCNC(C)=O)c1C2=O — IC50 (cell growth or viability, CCK-8; 48 h): 0.9 µM
CC(=O)[C@@H]1CCCN1C(=O)[C@@H]1CCCN1C(=O)[C@H](Cc1ccccc1)N(C)C(=O)OC(C)(C)C — IC50 (cell growth or viability, SRB): 160 µM
CCCC(CCC)C(=O)[O][Pt]([NH2])([NH2])([Cl])([Cl])[O]C(=O)C(C)c1ccc(CC(C)C)cc1 (centres unmarked) — IC50 (cell growth or viability, MTT; 72 h): 0.47 µM
CC(=NNC(=S)NN=C(C(=NO)c1ccccc1)c1ccccc1)c1ccccc1 — IC50 (cell growth or viability, MTT; 48 h): 71.7 µM
CC1(N)CCN(c2nc(N(Cc3ccccc3)Cc3ccccc3)nc3c2ncn3Cc2ccccc2)CC1 — IC50 (cell growth or viability, WST-1; 72 h): 5.6 µM
[Cl][Cu-][c]1n(-c2c(C(c3ccccc3)c3ccccc3)cc(C(c3ccccc3)c3ccccc3)cc2C(c2ccccc2)c2ccccc2)c2c([n+]1-c1c(C(c3ccccc3)c3ccccc3)cc(C(c3ccccc3)c3ccccc3)cc1C(c1ccccc1)c1ccccc1)-c1cccc3cccc-2c13 — IC50 (cell growth or viability, MTT; 72 h): > 50 µM
FC(F)(F)Sc1ccc(-c2noc(-c3cccs3)c2C(F)(F)F)cc1 — IC50 (cell growth or viability, MTT; 48 h): 118 µM

Excerpt of the above:
CCCCCCCCCC(=O)N[C@@H](Cc1ccccc1)C(=O)N[C@@H](Cc1ccccc1)C(=O)N[C@@H](Cc1ccccc1)C(=O)N[C@@H](Cc1ccccc1)C(=O)N[C@@H](CCCCN)C(=O)N[C@@H](CCCCN)C(=O)N[C@@H](CCCCN)C(=O)N[C@@H](CCCCN)C(=O)N[C@@H](CCCCN)C(N)=O — IC50 (cell growth or viability, resazurin): > 32 µg/mL
